{"data": "Published values collected from several papers", "rep methyltransferase": "Replicase polyprotein 1ab, methyltransferase (rep, Severe acute respiratory syndrome coronavirus 2, UniProt P0DTD1)", "rep main protease": "Replicase polyprotein 1ab, main protease (rep, Severe acute respiratory syndrome coronavirus 2, UniProt P0DTD1)", "OPRK1": "Kappa-type opioid receptor (OPRK1, Homo sapiens, UniProt P41145)", "note": "Lines come from different studies, so protocols differ. Numbers after ± are the reported error.", "chain of UniProt P41145 (whole entry, looked up)": "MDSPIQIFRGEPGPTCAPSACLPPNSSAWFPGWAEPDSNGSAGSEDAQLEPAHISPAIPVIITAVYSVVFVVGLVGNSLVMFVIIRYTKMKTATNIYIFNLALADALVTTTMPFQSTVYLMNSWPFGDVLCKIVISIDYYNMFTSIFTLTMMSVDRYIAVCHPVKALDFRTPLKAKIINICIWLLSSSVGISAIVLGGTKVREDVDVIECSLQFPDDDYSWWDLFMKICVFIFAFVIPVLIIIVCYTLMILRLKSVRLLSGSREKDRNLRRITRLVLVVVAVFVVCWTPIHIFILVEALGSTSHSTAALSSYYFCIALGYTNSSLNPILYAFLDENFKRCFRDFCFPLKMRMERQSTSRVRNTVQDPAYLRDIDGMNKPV", "chain of UniProt P35372 (whole entry, looked up)": "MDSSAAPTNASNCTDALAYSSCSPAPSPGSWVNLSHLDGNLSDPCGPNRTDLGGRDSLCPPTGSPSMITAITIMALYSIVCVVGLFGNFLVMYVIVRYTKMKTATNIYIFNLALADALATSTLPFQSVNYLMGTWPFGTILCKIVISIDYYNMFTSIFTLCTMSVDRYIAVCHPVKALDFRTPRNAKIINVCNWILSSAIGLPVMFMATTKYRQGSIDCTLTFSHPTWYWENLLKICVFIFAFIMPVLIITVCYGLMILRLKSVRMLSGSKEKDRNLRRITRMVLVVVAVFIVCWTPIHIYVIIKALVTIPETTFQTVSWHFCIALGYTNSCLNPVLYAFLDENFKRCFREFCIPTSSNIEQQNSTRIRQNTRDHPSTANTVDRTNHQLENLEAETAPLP"}
{"SMILES": "CC1CC(c2ccc(C(=O)O)s2)=NN1c1ccc(C#N)c(Cl)c1 (centres unmarked)", "target or system": "rep methyltransferase", "test": "enzyme activity, inhibitor", "measurement": "IC50", "result": "0.794 µM"}
{"SMILES": "O=c1cc(-c2ccc(O)c(O)c2)oc2cc(O[C@@H]3O[C@H](CO)[C@@H](O)[C@H](O)[C@H]3O)cc(O)c12", "target or system": "Replicase polyprotein 1ab, nsp13 helicase (rep, Severe acute respiratory syndrome coronavirus 2, UniProt P0DTD1)", "test": "ATPase activity", "conditions": "no nucleic acid", "measurement": "IC50", "result": "> 30 µM"}
{"SMILES": "CCCCCCCCCCCCCCCC(=O)N[C@@H](CCC(=O)NCCOCCOCCC(=O)NCCOCCOCCC(=O)NCCCC[C@H](NC(=O)[C@H](CC(=O)O)NC(=O)[C@H](CC(C)C)NC(=O)[C@H](Cc1ccc(O)cc1)NC(=O)[C@H](CCCCN)NC(=O)[C@H](CO)NC(=O)[C@H](Cc1ccc(O)cc1)NC(=O)[C@H](CC(=O)O)NC(=O)[C@H](CO)NC(=O)[C@@H](NC(=O)[C@H](Cc1ccccc1)NC(=O)[C@@H](NC(=O)CNC(=O)[C@H](CCC(N)=O)NC(=O)[C@@H](CO)NC(=O)[C@@H](N)Cc1c[nH]cn1)[C@@H](C)O)[C@@H](C)O)C(=O)N[C@@H](CCCNC(=N)N)C(=O)N[C@@H](CCCNC(=N)N)C(=O)N[C@@H](C)C(=O)N[C@@H](CCC(N)=O)C(=O)N[C@@H](CC(=O)O)C(=O)N[C@@H](Cc1ccccc1)C(=O)N[C@H](C(=O)N[C@@H](CCC(N)=O)C(=O)N[C@@H](Cc1c[nH]c2ccccc12)C(=O)N[C@@H](CC(C)C)C(=O)N[C@@H](CC(C)C)C(=O)N[C@@H](CC(N)=O)C(=O)N[C@H](C(=O)NCC(=O)NCC(=O)N1CCC[C@H]1C(=O)N[C@@H](CO)C(=O)N[C@@H](CO)C(=O)NCC(=O)N[C@@H](C)C(=O)N1CCC[C@H]1C(=O)N1CCC[C@H]1C(=O)N1CCC[C@H]1C(=O)N[C@@H](CO)C(N)=O)[C@@H](C)O)C(C)C)C(=O)O", "test": "refers to: CK", "test system": "Sprague-Dawley rat, male", "conditions": "subcutaneous, 100 µg/kg once daily, 14 days", "measurement": "serum enzyme activity", "result": "492 ± 108 U/L"}
{"SMILES": "O=C(O)CNC(=O)c1ccccc1[Se][Se]c1ccccc1C(=O)NCC(=O)O", "target or system": "rep main protease", "test": "enzyme activity, inhibitor", "measurement": "IC50", "result": "6.49 µM"}
{"SMILES": "Oc1cc(O)c2c(c1)OC(c1ccc(O)c(O)c1)C(OC1(c3ccc(O)c(O)c3)Oc3cc(O)cc(O)c3C(O)C1O)C2 (centres unmarked)", "target or system": "rep methyltransferase", "test": "enzyme activity, inhibitor", "measurement": "IC50", "result": "2.22 µM"}
{"SMILES": "COc1cc(OC)cc(C(=O)N(CCC(=O)N2CCNCC2)Cc2cccc(Cl)c2)c1", "target or system": "Replicase polyprotein 1ab, nsp3 macrodomain (rep, Severe acute respiratory syndrome coronavirus 2, UniProt P0DTD1)", "test": "binding, FRET", "test system": "SARS-CoV-2", "measurement": "IC50", "result": "45 ± 10.9 µM"}
{"SMILES": "O=C(Nc1ccc(S(=O)(=O)O)cc1)C1=C(C(F)(F)F)NC(=S)NC1c1ccc([N+](=O)[O-])cc1 (centres unmarked)", "target or system": "rep main protease", "test": "enzyme activity, inhibitor, fluorescence", "conditions": "with preincubation", "measurement": "IC50", "result": "55.5 µM"}
{"SMILES": "N#Cc1ccccc1CC(N)C(=O)NC(Cc1ccc(Cl)cc1Cl)C(=O)NC(CC(=O)NCCCCN1CCCC1)Cc1ccc(F)cc1 (centres unmarked)", "target or system": "rep main protease", "test": "enzyme activity, inhibitor, fluorescence", "measurement": "IC50", "result": "0.02 µM"}
{"SMILES": "CC(C)(C)c1ccc(N(C(=O)C(F)Cl)C(C(=O)NCCc2cccnc2)c2cccnc2)cc1 (centres unmarked)", "target or system": "rep main protease", "test": "enzyme activity, inhibitor", "measurement": "IC50", "result": "0.73 µM"}
{"SMILES": "CC(C)C[C@H](NC(=O)[C@H](CO)NC(=O)[C@H](CCCCN)NC(=O)[C@H](CC(C)C)NC(=O)C(C)(C)NC(=O)[C@H](CCCCN)NC(=O)[C@H](CCC(=O)O)NC(=O)C(C)(C)NC(=O)[C@H](CC(C)C)NC(=O)[C@H](CC(N)=O)NC(=O)[C@@H]1CCCN1C(=O)[C@H](CC(C)C)NC(=O)[C@H](Cc1ccccc1)NC(=O)CNC(=O)[C@H](NC(=O)[C@@H](N)Cc1ccc(O)cc1)[C@H](C)O)C(N)=O", "target or system": "OPRK1", "test": "ligand displacement, radioligand", "conditions": "pH 7.5, cell membranes", "measurement": "Ki", "result": "0.014 µM"}
{"SMILES": "Nc1nnc(SC2CC(=O)N(c3cccc4ccccc34)C2=O)s1 (centres unmarked)", "target or system": "rep main protease", "test": "enzyme activity, inhibitor", "conditions": "5 min preincubation", "measurement": "IC50", "result": "2.41 ± 0.02 µM"}
{"SMILES": "CC[C@H](C)[C@H](NC(=O)[C@H](CCCCN)NC(=O)[C@H](CCCCN)NC(=O)[C@H](CC(C)C)NC(=O)[C@H](Cc1c[nH]c2ccccc12)NC(=O)CN)C(=O)NCC(=O)N[C@@H](CCCCN)C(=O)N[C@@H](CCCCN)C(=O)N[C@H](C(=O)N[C@@H](CCC(=O)O)C(=O)N[C@@H](CCCNC(=N)N)C(=O)N[C@H](C(=O)NCC(=O)N[C@@H](CCC(N)=O)C(=O)N[C@@H](Cc1c[nH]cn1)C(=O)N[C@H](C(=O)N[C@@H](CCCNC(=N)N)C(=O)N[C@@H](CC(=O)O)C(=O)N[C@@H](C)C(=O)N[C@H](C(=O)N[C@H](C(=O)N[C@@H](CCC(N)=O)C(=O)N[C@H](C(=O)N[C@H](C(=O)NCC(=O)N[C@H](C(=O)N[C@@H](C)C(=O)N[C@@H](CCC(N)=O)C(=O)N[C@@H](CCC(N)=O)C(=O)N[C@@H](C)C(=O)N[C@@H](C)C(=O)N[C@@H](CC(N)=O)C(=O)N[C@H](C(=O)N[C@@H](C)C(=O)N[C@@H](C)C(=O)N[C@H](C(=O)N[C@@H](CC(C)C)C(=O)N[C@@H](CCCCN)C(N)=O)[C@@H](C)O)C(C)C)C(C)C)[C@@H](C)CC)[C@@H](C)O)[C@@H](C)CC)[C@@H](C)O)[C@@H](C)O)C(C)C)[C@@H](C)CC", "target or system": "Klebsiella pneumoniae", "test": "broth microdilution", "test system": "DSM 30104, CAMHB", "measurement": "MIC", "result": "4 µg/mL"}
{"SMILES": "NC(CO)C(O)c1ccc2c(c1)OCO2 (centres unmarked)", "target or system": "rep main protease", "test": "enzyme activity, inhibitor, FRET", "measurement": "IC50", "result": "8.53 ± 0.43 µM"}
{"SMILES": "Cc1ccc(NC(=S)N/N=C/c2ccc(O)cc2)cc1", "target or system": "rep main protease", "test": "enzyme activity, inhibitor, FRET", "measurement": "IC50", "result": "3.25 µM"}
{"SMILES": "CCC(C(=O)Nn1cccc1)n1cc(F)cc2nc(SCc3ccc(F)cc3)nc1-2 (centres unmarked)", "target or system": "Replicase polyprotein 1ab, papain-like protease (rep, Severe acute respiratory syndrome coronavirus 2, UniProt P0DTD1)", "test": "enzyme activity, inhibitor", "measurement": "IC50", "result": "8.77 µM"}
{"SMILES": "CC(C)C[C@H](NC(=O)[C@H](CO[C@@H]1O[C@H](CO)[C@@H](O)[C@H](O)[C@H]1O)NC(=O)[C@H](CCCCN)NC(=O)[C@H](CC(C)C)NC(=O)[C@H](C)NC(=O)[C@H](CCCCN)NC(=O)[C@H](CCC(=O)O)NC(=O)[C@H](C)NC(=O)[C@H](CC(C)C)NC(=O)[C@H](CC(N)=O)NC(=O)[C@@H]1CCCN1C(=O)[C@H](CC(C)C)NC(=O)[C@H](Cc1ccccc1)NC(=O)CNC(=O)[C@H](NC(=O)[C@@H](N)Cc1ccc(O)cc1)[C@H](C)O)C(N)=O", "target or system": "OPRK1", "test": "ligand displacement, radioligand", "conditions": "pH 7.5, cell membranes", "measurement": "Ki", "result": "0.0089 µM"}
{"SMILES": "Cc1cc(O)cc(C)c1C[C@H](N)C(=O)NCC(=O)NCC(=O)N[C@@H](Cc1ccccc1)C(=O)N[C@H](C(=O)NCC(=O)N[C@@H](C)C(=O)N[C@@H](CCCNC(=N)N)C(=O)N[C@@H](CCCCN)C(=O)N[C@@H](CO)C(=O)N[C@@H](C)C(=O)N[C@@H](CCCNC(=N)N)C(=O)N[C@@H](CCCCN)C(N)=O)[C@@H](C)O", "target or system": "OPRM1 (Homo sapiens, UniProt P35372)", "test": "β-arrestin 2 recruitment, agonist, BRET", "test system": "SH-SY5Y cells", "conditions": "15 min, room temperature", "measurement": "EC50", "result": "0.0741 µM"}
{"SMILES": "CNC(=O)C[C@H](Cc1ccc(F)cc1)NC(=O)[C@@H](Cc1ccc(Cl)cc1Cl)NC(=O)[C@@H](Cc1ccccc1C#N)NC(C)=O", "target or system": "rep main protease", "test": "enzyme activity, inhibitor, fluorescence", "measurement": "IC50", "result": "> 50 µM"}
{"SMILES": "CC1=C(c2ccccc2)C1C(=O)NCc1nc(-c2ccc(C)cc2)no1 (centres unmarked)", "target or system": "rep main protease", "test": "enzyme activity, inhibitor, FRET", "measurement": "IC50", "result": "35.2 µM"}
{"SMILES": "Cc1cc(C)nc(Sc2nc3sccn3c2[N+](=O)[O-])n1", "target or system": "rep main protease", "test": "enzyme activity, inhibitor", "measurement": "IC50", "result": "82.3 µM"}
{"note": "Repeated from above:"}
{"SMILES": "NC(CO)C(O)c1ccc2c(c1)OCO2 (centres unmarked)", "target or system": "rep main protease", "test": "enzyme activity, inhibitor, FRET", "measurement": "IC50", "result": "8.53 ± 0.43 µM"}
{"SMILES": "Cc1ccc(NC(=S)N/N=C/c2ccc(O)cc2)cc1", "target or system": "rep main protease", "test": "enzyme activity, inhibitor, FRET", "measurement": "IC50", "result": "3.25 µM"}
{"SMILES": "CCC(C(=O)Nn1cccc1)n1cc(F)cc2nc(SCc3ccc(F)cc3)nc1-2 (centres unmarked)", "target or system": "Replicase polyprotein 1ab, papain-like protease (rep, Severe acute respiratory syndrome coronavirus 2, UniProt P0DTD1)", "test": "enzyme activity, inhibitor", "measurement": "IC50", "result": "8.77 µM"}
